Measured values gathered from unrelated publications.
Each numbered part is a random draw from the data of one study; scales do not carry over between parts. Positions count from the first letter of the parent shown.

Set 1
Target: ABI1, truncated, D143A, DHFR fusion (Arabidopsis thaliana)
Technique: DHFR PCA, deep sequencing
Sample: yeast
Notes: methotrexate growth selection, single substitutions
With: (+)-ABA 0.11 µM
Relative to: wild-type fitted maximum
Reading: higher = stronger binding
Parent: PYL1, truncated, DHFR fusion (Arabidopsis thaliana); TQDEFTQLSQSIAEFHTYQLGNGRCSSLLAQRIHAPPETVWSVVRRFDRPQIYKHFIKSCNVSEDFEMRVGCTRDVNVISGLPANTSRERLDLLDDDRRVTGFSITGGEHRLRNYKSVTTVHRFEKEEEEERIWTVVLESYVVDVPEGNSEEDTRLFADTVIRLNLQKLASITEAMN
| Variant | relative binding score |
| --- | --- |
| R45E | -4.41% |
| D3S | 25.6% |
| S42M | 6.3% |
| L112T | -9.4% |
| P36G | -2.37% |
| I57N | -8.32% |
| A13W | 3.4% |
| H34R | 31.6% |
| L82P | 9.22% |
| T154K | -8.94% |
| D92K | -10.3% |
| V118I | 28.8% |

Set 2
Target: CCND2, cyclin fold, Cln2 fusion (human)
Technique: yeast growth competition, sequencing
Sample: yeast
Notes: weak parent motif
Relative to: not given
Reading: higher = stronger binding
Parent: CDKN1B docking peptide (human); PSACRNLFGPVDH; partner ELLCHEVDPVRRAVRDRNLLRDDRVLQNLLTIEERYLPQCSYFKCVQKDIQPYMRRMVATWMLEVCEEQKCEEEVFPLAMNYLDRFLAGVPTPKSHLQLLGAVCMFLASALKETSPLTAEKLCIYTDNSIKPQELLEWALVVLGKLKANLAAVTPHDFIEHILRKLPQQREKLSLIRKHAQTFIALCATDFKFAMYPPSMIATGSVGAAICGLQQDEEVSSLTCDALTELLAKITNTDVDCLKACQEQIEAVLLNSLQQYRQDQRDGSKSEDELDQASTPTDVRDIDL
| Variant | normalised enrichment score |
| --- | --- |
| C4M | -0.157 |
| G9T | 0.22 |
| D12I | 0.131 |
| V11E | 0.281 |
| C4W | 0.268 |
| C4Y | 0.0855 |
| P1I | -0.183 |
| C4H | 0.0982 |
| P10V | -0.0772 |
| L7Y | -0.185 |
| S2D | 0.0957 |
| V11A | -0.033 |
| G9Y | 0.532 |
| P10N | 0.188 |
| A3K | -0.234 |
| A3E | -0.0264 |
| S2I | 0.0955 |
| P1V | 0.0736 |
| R5E | 0.0833 |
| S2V | 0.353 |

Set 3
Target: RNA binding protein fox-1 homolog 2, RRM domain, GST-SBP tag (RBFOX2, Homo sapiens, UniProt O43251-10, residues 100-194)
Technique: RNA Bind-n-Seq
Molecule type: RNA
Sample: in vitro
Concentration: 365 nM
Notes: natural RNA segment, single round, ends assumed
Relative to: no-protein control
Reading: higher = stronger binding
Residues (chain): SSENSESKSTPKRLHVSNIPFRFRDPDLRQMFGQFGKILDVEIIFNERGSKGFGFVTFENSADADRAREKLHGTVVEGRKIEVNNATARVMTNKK
| Sequence | RBNS enrichment (R) |
| --- | --- |
| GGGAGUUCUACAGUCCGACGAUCAAAAUCGUGGAUGAAUAGUUACUCUGGACAGGACUUUUGACAUGUCUUGCUCUGUGGAAUUUUGUGCUUACUACUGUAUAGUGCAUGUGGCUUAGGUUACCCUAGCUGGUUGGAAUUCUCGGGUGCCAA | 2.03 |
| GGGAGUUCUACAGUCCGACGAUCGACCAGGCGCUUGAUUGGGUGUUCAGUAUGGAGUAGAUGAAGUGCGUAUUUAUUUAAGGCGAAAGCUUUGACCUGAGCUGUCUUCCUCUCCCCUGUACAUGUACUGUAGAUGGAAUUCUCGGGUGCCAA | 0.377 |
| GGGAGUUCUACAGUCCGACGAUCUUUCCUAUACUAUACAUAUAUAUGUGUUCUGGUCGGCAAAGCCUGCCGACCAGAGGAAGUCUCUCUGCAUGUUCUAGUGUUAGUAACUAAUUUUUAUAUAGCUAAUGUAGUGGAAUUCUCGGGUGCCAA | 4.23 |
| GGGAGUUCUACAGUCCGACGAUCGAGCUUUGCCUCGCCUCCGCCUGCGCUCCCCUCCAGGGUCCUUCUGCUGGCUGCGGACUCGGCCCACCACUGCUGUCUGACGCUUUUCUUCCUGCCCCCUCUGAGGCCUGUGGAAUUCUCGGGUGCCAA | 0.364 |
| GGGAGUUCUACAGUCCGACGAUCUGUUUAGCCAAGUAGCUUUGGGCAUAGGCUGCCCAAUCUGAGCAAACACCAGUGAGGCUCUAUUGAGCCAAGACCAAGUCCUCAAAGCACCUGAACCACUGUGGCCUUCUUGGAAUUCUCGGGUGCCAA | 0.252 |
| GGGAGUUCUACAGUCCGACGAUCACUGAGCUGGAGCCCGCCUGGAGAGACAGACACGUGUGAGUGGUCAGGCAUCUUCCCUUCACUCAAGCUUGGCUGCUUUCCUAGAUCCACACUUUCAAAGAGAAACCCCUUGGAAUUCUCGGGUGCCAA | 0.365 |
| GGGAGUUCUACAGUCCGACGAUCGUGGAACCAUAAAGUCCCCAUCUCAAAGUGUGCCUGUGGGACAGGGUUAGUAGCUACUCCCCGAGGCCCCAACCCGGGAAAUACUGCAGUGUUCCUUCCUGCAGGCCUUGUGGAAUUCUCGGGUGCCAA | 0.374 |
| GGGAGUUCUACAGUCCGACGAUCCAGGGCUAAAACUCUAAUUUGGAAUUGAAUAUUGUGGAUAUCUUAGUUAAAGGCCAUGCUUACAGCUUAGAAAUGAAGCCUUAAGCUGCAUCAAGUUACGAAGUGAUUAAUGGAAUUCUCGGGUGCCAA | 0.911 |
| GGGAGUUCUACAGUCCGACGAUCUGUGUCAAGAAAAGAGCAGUCACUCUCAGAAUCUUGAUUCCCCAUCAGCCAAAGCAAAAGAUGGCUGCUGCUUUGUAGGCAUGUGCCUGCAAGUGGGACCUUGCUGGGCAUGGAAUUCUCGGGUGCCAA | 0.354 |
| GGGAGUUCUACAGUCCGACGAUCCUCCUCACUUGCUGCAGUGUCAUAGCAAUAAAAUGUGAUUCUUGGGGUCCCCCCAGGGAGCUGCCCAUGGCUUUAUUUAUGAACCUGGUUUUCGGGAGUCAGGGGAGGAGUGGAAUUCUCGGGUGCCAA | 0.418 |
| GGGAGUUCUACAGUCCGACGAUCGCCUCCUUUCGCAGCCAGCCUGGGAUAGAGUUACUGACAUUUGAGGGCUGGCCAUCUUUCACCAUGCUGAGGGGAUUUUAACAAUACAAUUCCCGUUUAUAUUUAUAUCUUGGAAUUCUCGGGUGCCAA | 0.57 |
| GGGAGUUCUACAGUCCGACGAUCGGAAUGCAUGCAGCCUGCUGUUGGUACCCUGCUCACCUGUGUCUUUCUUACCCAGGAGGCUUCUCUCAGUGGUUGGAAGUAAAACCAUCUCAAUGGGCCUAUACAGGAAAUGGAAUUCUCGGGUGCCAA | 7.87 |

Set 4
Target: JUN, bZIP domain (human)
Technique: DHFR protein complementation
Sample: yeast
Notes: single substitutions, most at no-binding floor
Relative to: wild-type JUN-FOS pair
Reading: higher = stronger binding
Parent: JUN, bZIP domain (human); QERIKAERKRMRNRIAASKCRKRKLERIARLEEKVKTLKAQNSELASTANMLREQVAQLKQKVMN
| Variant | binding fitness [natural log] |
| --- | --- |
| L38D | -1.41 |
| Q58P | -1.27 |
| L31Q | -1.47 |
| L38T | -1.36 |
| L38I | -1.22 |
| L38H | -1.33 |
| K34P | -1.34 |
| L38G | -1.3 |
| L59R | -1.2 |
| N42F | -1.21 |
| L59P | -1.39 |
| L45Q | -1.3 |

Set 5
Target: Fragile X messenger ribonucleoprotein 1, C-terminal low-complexity region (Fmr1, Mus musculus, UniProt P35922)
Technique: RNA Bind-n-Seq
Molecule type: RNA
Sample: in vitro
Concentration: 200 nM
Notes: whole 134-nt RNA, ends assumed
With: 150 mM LiCl
Relative to: input library
Reading: higher = stronger binding
Each molecule: 7-deaza-guanosine replaces G
| Sequence | log2 enrichment |
| --- | --- |
| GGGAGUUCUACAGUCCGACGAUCUGUGCUACACAUCGUAUGUACCGAAUCGGGGUUUUUGGGGUUUUUUUGGGGAAAAAAAGGGGAAAGUAUUAUGUUACGCCGUUCGGAUCUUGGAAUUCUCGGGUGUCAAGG | -0.119 |
| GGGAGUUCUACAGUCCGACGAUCAGUCCUGUGCUACACAUCGUAUGUACCGAAUCAAAUUUAAACCCAAACCCCCCCAAAAAAGUAUUAUGUUACGCCGUUCGGAUCUGCACUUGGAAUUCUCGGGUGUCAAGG | 1.14 |
| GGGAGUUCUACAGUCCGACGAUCGGAGGAAGUAAAAACAAAUGGAAAUGCUUCGGAUAGUGGCAGGGGUGGGGGUUGCUAAGGAAAGGGUGGGAUGGGAGUGGGUAAAGAGUUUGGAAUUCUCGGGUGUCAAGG | 1.65 |
| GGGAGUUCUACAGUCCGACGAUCCCUGUGCUACACAUCGUAUGUACCGAAUCGGGGAAAAAAGGGAAAAAAGGGGAAAAAAGGAAAGUAUUAUGUUACGCCGUUCGGAUCUGCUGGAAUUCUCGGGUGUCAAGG | 0.462 |
| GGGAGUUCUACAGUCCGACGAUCCACAGACAACACGCACCCACACAGACACAGAGGGAAGGGGUUGGGAUGGGGACAGGGUGCACAGCAGGGCGGGGUAGGAACCCAGCCCCUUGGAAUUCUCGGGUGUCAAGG | 1.53 |
| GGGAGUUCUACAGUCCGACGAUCUGGGAGGUGGAUUUUGUUUAUUUUUUUGGCUCAUUUCCAGGGGUGGGAAUUUUUUUUUAAUAUGUGUCAUGAAUAAAGUUGUUUUUGAAAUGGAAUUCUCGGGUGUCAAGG | 0.399 |
| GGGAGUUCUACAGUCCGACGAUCCUCAAGUCCUGUGCUACACAUCGUAUGUACCGAAUCGGGUUGGUUGGGGUUGGGAAAGUAUUAUGUUACGCCGUUCGGAUCUGCACUUCCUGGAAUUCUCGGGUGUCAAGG | -0.485 |
| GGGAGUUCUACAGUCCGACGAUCUGGCAGAGAAAUUGCAGCUGCAGGAGCAGCUCCAGGCAGAAACCGAGCUGUGUGCCGAGGCUGAGGAGCUCCGGGCCCGCCUGACCGCCAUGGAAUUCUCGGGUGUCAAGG | -1.23 |
| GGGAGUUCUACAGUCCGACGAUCUGGGAGGUGGAUUUUGUUUAUUUUUUUAGCUCAUUUCCAGGGGUGGGAAUUUUUUUUUAAUAUGUGUCAUGGAUAAAGUUGUUUUUGAAAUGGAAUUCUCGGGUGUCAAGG | 0.297 |
| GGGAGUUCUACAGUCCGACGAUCUCAAGUCCUGUGCUACACAUCGUAUGUACCGAAUCGGGGUUGGGUUGGGUUGGGGAAAGUAUUAUGUUACGCCGUUCGGAUCUGCACUUCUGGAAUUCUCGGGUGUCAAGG | 0.161 |
| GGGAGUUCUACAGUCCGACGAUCUCCUGUGCUACACAUCGUAUGUACCGAAUCGGGGUUUUUGGGGUUUUUGGUUUUUGGGGAAAGUAUUAUGUUACGCCGUUCGGAUCUGCAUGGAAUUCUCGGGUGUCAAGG | -1.07 |

Excerpt of the above (set 3):
| Sequence | RBNS enrichment (R) |
| --- | --- |
| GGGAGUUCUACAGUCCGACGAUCCUCCUCACUUGCUGCAGUGUCAUAGCAAUAAAAUGUGAUUCUUGGGGUCCCCCCAGGGAGCUGCCCAUGGCUUUAUUUAUGAACCUGGUUUUCGGGAGUCAGGGGAGGAGUGGAAUUCUCGGGUGCCAA | 0.418 |
| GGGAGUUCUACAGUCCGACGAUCUGUUUAGCCAAGUAGCUUUGGGCAUAGGCUGCCCAAUCUGAGCAAACACCAGUGAGGCUCUAUUGAGCCAAGACCAAGUCCUCAAAGCACCUGAACCACUGUGGCCUUCUUGGAAUUCUCGGGUGCCAA | 0.252 |
| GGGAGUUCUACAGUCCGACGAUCGACCAGGCGCUUGAUUGGGUGUUCAGUAUGGAGUAGAUGAAGUGCGUAUUUAUUUAAGGCGAAAGCUUUGACCUGAGCUGUCUUCCUCUCCCCUGUACAUGUACUGUAGAUGGAAUUCUCGGGUGCCAA | 0.377 |
| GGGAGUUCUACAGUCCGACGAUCUUUCCUAUACUAUACAUAUAUAUGUGUUCUGGUCGGCAAAGCCUGCCGACCAGAGGAAGUCUCUCUGCAUGUUCUAGUGUUAGUAACUAAUUUUUAUAUAGCUAAUGUAGUGGAAUUCUCGGGUGCCAA | 4.23 |
